Assay results gathered from unrelated publications.
Numbered parts are unrelated; each lists some results of a single study. Substitutions count along the parent as printed.

Series 1
Target: RING finger protein unkempt homolog, zinc fingers 1-6, GST-SBP tag (UNK, Homo sapiens, UniProt Q9C0B0, residues 30-357)
Chain of UniProt Q9C0B0 (30-357, looked up): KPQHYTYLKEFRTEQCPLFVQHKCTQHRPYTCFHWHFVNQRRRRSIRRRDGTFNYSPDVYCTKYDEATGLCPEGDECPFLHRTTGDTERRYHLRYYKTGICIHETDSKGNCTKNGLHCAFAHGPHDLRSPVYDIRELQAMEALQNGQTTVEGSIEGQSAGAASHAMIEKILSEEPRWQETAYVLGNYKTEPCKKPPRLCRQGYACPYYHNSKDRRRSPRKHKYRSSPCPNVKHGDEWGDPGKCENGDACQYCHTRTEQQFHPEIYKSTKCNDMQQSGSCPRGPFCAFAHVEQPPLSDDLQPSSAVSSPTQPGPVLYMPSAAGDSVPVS
Method: RNA Bind-n-Seq
Molecule type: RNA
Sample: in vitro
Tested at: not given
Setting: RNA with constant flanks, human and mouse sites, ends assumed
Relative to: input RNA pool
Direction: higher = stronger binding
Oligonucleotide | bound/input enrichment
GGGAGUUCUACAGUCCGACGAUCUGUCAGGUGGCUUAUUUGUGGAUGCCAUGAUUGAUGAUGUUCAUUUUAAGCUCUUACCUAUAGUACAAGUACAUGAUGCUACUGAAUAUUUUUCCACUUGGAAACUGUGAGCUGGUUGUUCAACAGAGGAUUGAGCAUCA | 0.399 ratio
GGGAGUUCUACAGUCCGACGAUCUCUAUUGUGAUUGCAUAUAACUACUGCUUUUCCACCUGCCUUGGCCAUGUGGAGAACUUGGGAAAGUAUGAUGAGUUCAAAUUUGGCUGUACCUCUCUGAGAGUACCUCCAGAUUUACUUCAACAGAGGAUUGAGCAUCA | 0.103 ratio
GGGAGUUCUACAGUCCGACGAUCGACCACAAUGCCCCCAUUGAGAAAUAUGACAUUGAAUUUGAGGACAAGGAAAUGGCGCCUGAAAAAUGGUACAGUCUGGGCAAGGUUCCAGGGAACCAGACCUCUACCACCCUCAAGCUGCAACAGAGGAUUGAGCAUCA | 0.196 ratio
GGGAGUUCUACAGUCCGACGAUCGUUCCGGAAAUCAUGGAUCGGAUCUACAAAAAUGUCAUGAAUAAAGUGAAUGAAAUGAGUGCUUUUCAACGAAACUUGUUUAUUUUGGCAUAUAAUUAUAAGAUGGAACAGAUUUCAAAACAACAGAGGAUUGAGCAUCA | 0.127 ratio
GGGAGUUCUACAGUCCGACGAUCGCAAAAGUUGCACAGAAGUCUUACGGAAAUGAAAAACGAUUUUUUUGCCCUCCUCCUUGUGUGUAUCUUAUGGGCAGUGGUUGGAAGAAAAAAAAAGAGCAAAUGGAACGAGAUGGAUGUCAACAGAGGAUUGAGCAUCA | 0.266 ratio
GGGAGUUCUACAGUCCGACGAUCCUAUACCUGAAACUCACAUUUGACCUCAUAGAGAAAGGCUACCUAGUGCUAAAGAGUUCUAGCUACAAAGUCGUUCCUGUUUCGCUCUCUGAGGUUUAUUUACUCCAGUGCAAUAUGAAGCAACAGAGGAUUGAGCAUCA | 0.236 ratio
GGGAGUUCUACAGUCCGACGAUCUACCAGUCAUAUAAUCAGUAUCCUAAUGGGUCAGCCAAUGGCUUUGGUGCAGUUAGAAACUUUAGCCCCACUGACUAUUAUCAUUCAGAAAUUCCAAACACAAGACCACAUGAAAUUCUGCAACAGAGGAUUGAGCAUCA | 0.42 ratio
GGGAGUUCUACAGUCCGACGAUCUUCUUUAUGUUUGUAGUCUUGAUGUGCUCCUGUGGUAUUACUUCCCCUCUGAUAGGACAUUGUAGCCAGCCUCAGCACUCAGUGAGUUCAUCAGGGCCACACCCAGUAGAGAAGGCCAAGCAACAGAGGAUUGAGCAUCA | 0.89 ratio
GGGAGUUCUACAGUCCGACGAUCAGGUGGCAGAGAGGCUGGGGAGUUGCCCAUCGCUGCAGCCAGCUGCACAGUCUCAGCCGCCUAGCACAGCAGAAUCCGGGGCCACUUCAGAAUGUGAAAGGAUGCACGGUUGUAUUCACACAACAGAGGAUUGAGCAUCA | 0.185 ratio
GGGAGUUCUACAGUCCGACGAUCCAUGGACAUCAUAAAAUGGAACUUCCAGAUUAUAGACAAUGGAAGAUAGAAGGGACACCAUUAGAAACUAUCCAGAAGAAGCUGGCUGCAAAAGGGCUAAGGGAUCCAUGGGGCCGCAAUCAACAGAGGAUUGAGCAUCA | 3.72 ratio
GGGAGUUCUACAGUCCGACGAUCCCUGUCAUUCACAACGGAAGCCAGGGCACGGGCACCAAUGGGUCGGAAAUCAGUGAUAGCGAUUAUCAGGCAGAAUACCCCGAUGAAUAUCAUGGCGAGUACCCAGACGACUACCCUCGGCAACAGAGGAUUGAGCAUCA | 0.158 ratio

Series 2
Target: Ras GTPase-activating protein-binding protein 1, full length (G3BP1, Homo sapiens, UniProt Q13283)
Chain of UniProt Q13283 (whole entry, looked up): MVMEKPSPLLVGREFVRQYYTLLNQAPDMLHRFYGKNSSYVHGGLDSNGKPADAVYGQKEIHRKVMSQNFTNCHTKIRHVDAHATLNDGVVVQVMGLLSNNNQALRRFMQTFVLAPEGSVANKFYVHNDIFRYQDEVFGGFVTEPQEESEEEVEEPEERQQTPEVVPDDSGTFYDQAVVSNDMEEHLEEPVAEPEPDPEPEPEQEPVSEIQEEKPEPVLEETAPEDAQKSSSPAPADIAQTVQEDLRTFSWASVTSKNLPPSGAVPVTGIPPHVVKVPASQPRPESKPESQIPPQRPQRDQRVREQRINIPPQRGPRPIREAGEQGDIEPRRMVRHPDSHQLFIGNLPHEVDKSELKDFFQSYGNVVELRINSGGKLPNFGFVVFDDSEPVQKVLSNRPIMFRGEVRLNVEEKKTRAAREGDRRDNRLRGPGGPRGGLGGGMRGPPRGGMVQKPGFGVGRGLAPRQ
Method: RNA Bind-n-Seq
Molecule type: RNA
Sample: in vitro
Tested at: 200 nM
Setting: whole 134-nt RNA, ends assumed
With: 150 mM KCl
Relative to: input library
Direction: higher = stronger binding
Oligonucleotide | log2 enrichment
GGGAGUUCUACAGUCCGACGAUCAGUCCUGUGCUACACAUCGUAUGUACCGAAUCGGUUUUUGGGUUUUUGGGGUUUUUGGAAAGUAUUAUGUUACGCCGUUCGGAUCUGCACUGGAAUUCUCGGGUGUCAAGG | -0.843
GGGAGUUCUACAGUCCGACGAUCAAGUCCUGUGCUACACAUCGUAUGUACCGAAUCGGGGUUUGGGGUUUGGUUUGGGGAAAGUAUUAUGUUACGCCGUUCGGAUCUGCACUUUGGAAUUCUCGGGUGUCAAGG | -0.107
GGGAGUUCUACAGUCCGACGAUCCACAGACAACACGCACCCACACAGACACAGAGGGAAGGGGUUGGGAUGGGGAUAGGGUGCACAGCAGGGCGGGGUAGGACCCCAGCCCCUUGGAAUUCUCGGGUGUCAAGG | 1.85
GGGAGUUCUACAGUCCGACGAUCCUCAAGUCCUGUGCUACACAUCGUAUGUACCGAAUCGGGGCCGGCCGGCCGGGGAAAGUAUUAUGUUACGCCGUUCGGAUCUGCACUUCCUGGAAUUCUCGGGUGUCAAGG | 0.116
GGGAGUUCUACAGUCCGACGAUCGUCCUGUGCUACACAUCGUAUGUACCGAAUCGGGGUUUGGGGAAAGGGGUUUUUGGGGAAAGUAUUAUGUUACGCCGUUCGGAUCUGCACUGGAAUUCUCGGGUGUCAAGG | 0.433
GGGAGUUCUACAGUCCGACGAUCGCAGGAUGUAAAAACAAAUGGAAAUGCUUCGGAUAGUGGCAGGGGUGGGGGUUGCUAAGGAAAGGGUGGGAUGGGAGUGGGUAAAGAGUUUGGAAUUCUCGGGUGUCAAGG | 1.17
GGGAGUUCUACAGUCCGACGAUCACCAUGCAGGUGGGCAUCUUUGGGAAGUGGGGCAAGGGGGGGAUAGGGAGGGGGGUAACACUUUGGGAACAGGUAAACCCAGGUCGUUUCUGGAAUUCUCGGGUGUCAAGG | 1.01
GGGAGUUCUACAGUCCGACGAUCUGGGAGGUGGAUUUUGUUUUUUUUUUUAGCUCAUUUCCAGGGGUGGGAAUUUUUUUUUAAUAUGUGUCAUGAAUAAAGUUGUUUUUGAAAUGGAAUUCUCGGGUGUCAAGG | 0.314
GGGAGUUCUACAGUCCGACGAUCCCUCAAGUCCUGUGCUACACAUCGUAUGUACCGAAUCGGGUGGGUGGGAGGGAAAGUAUUAUGUUACGCCGUUCGGAUCUGCACUUCCAGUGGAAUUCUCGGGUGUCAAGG | 0.81
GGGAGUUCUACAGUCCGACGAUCACCAUGCAGGUGGGCAUCUUUGGGAAGUGGGGCAAGGGGGGGAUAGGGAGGGGGGUAACACUUUGGGAACAGGUGGUCCCAGGUCAUUUCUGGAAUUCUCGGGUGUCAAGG | 1.35
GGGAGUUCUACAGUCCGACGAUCCACAGACAACACGCACCCACACAGACACAGAGGGAAGGGGUUGGGAUGGGGACAGGGUGCACAGCAGGGCGGGGUAGGACCCCAGCCCCUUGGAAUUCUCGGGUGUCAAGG | 1.85
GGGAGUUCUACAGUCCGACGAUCAAGUCCUGUGCUACACAUCGUAUGUACCGAAUCGGGAAAGGGGAAAGGGGAAAGGGGAAAGUAUUAUGUUACGCCGUUCGGAUCUGCACUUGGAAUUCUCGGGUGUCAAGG | 0.217
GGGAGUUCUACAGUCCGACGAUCAAGUCCUGUGCUACACAUCGUAUGUACCGAAUCGGAAAAGGGGAAAAGGAAAAGGGAAAGUAUUAUGUUACGCCGUUCGGAUCUGCACUUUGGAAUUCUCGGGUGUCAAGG | -0.938
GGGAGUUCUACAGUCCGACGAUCUGGCCCUGGUGGAAUGCGGGGAGGAAGAGGUGGCCUCAUGGAUCGUGGUGGUCCCGGUGGAAUGUUCAGAGGUGGCCGUGGUGGAGACAGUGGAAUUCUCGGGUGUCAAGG | 0.163

Series 3
Target: CCNA1, cyclin fold, Cln2 fusion (human)
Method: yeast growth competition, sequencing
Sample: yeast
Setting: weak parent motif
Relative to: not given
Direction: higher = stronger binding
Starting sequence: BRCA2 docking peptide (human); PSIKRNLLNEFDR; partner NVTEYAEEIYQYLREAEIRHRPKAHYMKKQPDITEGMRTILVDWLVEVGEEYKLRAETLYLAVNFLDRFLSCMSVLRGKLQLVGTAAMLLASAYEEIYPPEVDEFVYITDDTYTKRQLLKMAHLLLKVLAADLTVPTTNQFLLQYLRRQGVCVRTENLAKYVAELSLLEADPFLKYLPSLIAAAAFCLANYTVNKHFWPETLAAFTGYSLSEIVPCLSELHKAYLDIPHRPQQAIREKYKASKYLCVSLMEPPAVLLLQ
Change | normalised enrichment score
PIIKRNLLNEFDR [S2I] | 0.198
PSIKRELLNEFDR [N6E] | 0.534
PSIKRNLRNEFDR [L8R] | -0.259
LSIKRNLLNEFDR [P1L] | 0.527
PSFKRNLLNEFDR [I3F] | 0.239
PSIKNNLLNEFDR [R5N] | -0.116
PSIKRNHLNEFDR [L7H] | 0.173
PSIKRNLDNEFDR [L8D] | -0.0544
PSIKRNLLNEFVR [D12V] | 0.68
PSIKRNILNEFDR [L7I] | 0.833
PSAKRNLLNEFDR [I3A] | 0.692
PSIKINLLNEFDR [R5I] | 0.408
PSCKRNLLNEFDR [I3C] | 1.08
PSIKRFLLNEFDR [N6F] | 0.398
PSIKRNLLAEFDR [N9A] | 0.791
MSIKRNLLNEFDR [P1M] | 0.332
PSIKRNLLNEFDI [R13I] | 0.889
PSIKRNLLNTFDR [E10T] | -0.492
PSIKRNLLTEFDR [N9T] | 0.736

Series 4
Target: Interferon regulatory factor 3, full length, phosphomimetic (IRF3, Homo sapiens, UniProt Q14653, residues 1-427, S386D/S396D/S398D/S402D/T404D/S405D)
Chain of UniProt Q14653 (whole entry, unmodified, looked up): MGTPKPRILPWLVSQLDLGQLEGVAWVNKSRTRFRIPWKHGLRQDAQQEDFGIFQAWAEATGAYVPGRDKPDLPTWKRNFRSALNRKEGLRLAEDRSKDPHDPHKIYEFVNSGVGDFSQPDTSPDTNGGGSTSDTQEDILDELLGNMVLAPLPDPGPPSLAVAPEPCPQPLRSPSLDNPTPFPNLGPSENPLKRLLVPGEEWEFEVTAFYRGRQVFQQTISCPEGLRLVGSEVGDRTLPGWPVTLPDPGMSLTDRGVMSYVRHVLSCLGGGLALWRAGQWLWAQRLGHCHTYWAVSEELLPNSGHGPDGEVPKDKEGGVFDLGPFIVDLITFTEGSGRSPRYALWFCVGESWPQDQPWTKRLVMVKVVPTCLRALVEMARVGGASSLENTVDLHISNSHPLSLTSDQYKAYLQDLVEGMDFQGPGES
Method: protein-binding microarray
Molecule type: double-stranded DNA, one strand shown
Sample: in vitro
Tested at: 2540 nM top
Setting: 60-bp whole probe
With: salmon DNA 0.4 mg/ml
Relative to: random background probes
Direction: higher = stronger binding
Shared flanks, not repeated: GCCTAGCAC … GTCTTGATTCGCTTGACGCTGCTG
Oligonucleotide | fitted relative affinity [z-score]
TTAGAAATCAGTCTCGATTAGTGCTAG | 0.781
TTAGGTATCCTTCTCCTTAAGTGCTAG | 7.55
GACGGTTTCGATTTTCGGGACGTGCTA | 7.32
TTAGATTTCGGGAATCGATTAGTGCTA | 0.731
GACGATTTCGGGACTGGTGACGTGCTA | 1.64
CTCCCTCAGGGTTTCAGATGGTGCTAG | 0.215
TTAGGTTTCGGCTTTCGGTTAGTGCTA | 3.87
CACGGACTGGGGTATCGGGACGTGCTA | -0.574
TCAGTTACCCCTCATCAAACTGTGCTA | 1.44
TGAGTGAAAGGCCCATACATGTGCTAG | -0.681
TCAGGAGTGTTTCTCAGACTGTGCTAG | -0.0178
CACGGACTGCTACTGCTGACGTGCTAG | -0.653
TTAGGTCTCGGGTATCGGTTAGTGCTA | 0.543
GACGGTTACGGGTATCGGGACGTGCTA | 0.302

Series 5
Target: ABI1, truncated, D143A, DHFR fusion (Arabidopsis thaliana)
Method: DHFR PCA, deep sequencing
Sample: yeast
Setting: methotrexate growth selection, single substitutions
With: (+)-ABA 0.11 µM
Relative to: wild-type fitted maximum
Direction: higher = stronger binding
Starting sequence: PYL1, truncated, DHFR fusion (Arabidopsis thaliana); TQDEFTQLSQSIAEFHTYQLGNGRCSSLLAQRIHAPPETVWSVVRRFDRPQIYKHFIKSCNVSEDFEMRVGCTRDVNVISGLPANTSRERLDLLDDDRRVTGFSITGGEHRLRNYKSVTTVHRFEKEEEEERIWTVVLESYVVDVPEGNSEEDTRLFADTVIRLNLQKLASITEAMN
Change | relative binding score
A175N | 26%
E129T | 34.2%
L166C | 0.0558%
I105H | -2.52%
Q51I | -22.1%
F157I | 0.105%
E151L | 23.4%
N77M | 43.1%
D75W | 32.1%
L91V | -5.47%
V100I | 18.4%
E14F | -0.8%

Excerpt of the above (series 5):
Change | relative binding score
I105H | -2.52%
Q51I | -22.1%
F157I | 0.105%
E151L | 23.4%
N77M | 43.1%
D75W | 32.1%
